Measured values collected from several papers.
Lines come from different studies, so protocols differ. Values joined by “and” are separate records of one study, mostly repeats; a detail may differ. ± marks the error that the study gave.

CC(C)(Sc1ccncc1-c1ccc(C#N)c2ccccc12)C(=O)O
AUC(0-24) (human, plasma; oral, 10 mg once daily, together with: febuxostat 0 mg): 0.209 µg·h/mL

O=C(Nc1nc2cccc(-c3ccc(CN4CCS(=O)(=O)CC4)cc3)n2n1)C1CC1
patients with AST increased (rheumatoid arthritis patients; oral, 100 mg twice daily, 4 weeks, regardless of relatedness): 0%

COc1cc(/C=C/C(=O)OC2CC(O)(C(=O)O)CC(O)C2O)ccc1O (centres unmarked)
plasma concentration (human plasma; median): 0.0144 µM

N[C@@H]1c2ccccc2OC12CCN(c1cnc3c(N4CCCc5ncccc54)n[nH]c3n1)CC2
AUC(0-tau) (advanced metastatic solid tumour patients, plasma; oral, 150 mg once daily, cycle 1 day 1, geometric mean): 4.32 µg·h/mL

Cc1cc(-c2nccc3c2ccn3CC(=O)Nc2ccc(-c3cnccn3)cn2)ccn1
subjects with gastrointestinal disorders TEAEs (human; SAD part, single 7 mg dose): 0%

CN[C@H](CC(C)C)C(=O)N[C@H]1C(=O)N[C@@H](CC(N)=O)C(=O)N[C@H]2C(=O)N[C@H]3C(=O)N[C@H](C(=O)N[C@H](C(=O)O)c4cc(O)cc(O)c4-c4cc3ccc4O)[C@H](O)c3ccc(c(Cl)c3)Oc3cc2cc(c3O[C@@H]2O[C@H](CO)[C@@H](O)[C@H](O)[C@H]2O[C@H]2C[C@](C)(N)[C@H](O)[C@H](C)O2)Oc2ccc(cc2Cl)[C@H]1O
amount permeated (starch gel membrane permeability; Gram-negative envelope surrogate; 200 µM, 45 min, pH 7.4): 0.76 nmol

C[C@H]1CN(C(=O)CC#N)[C@]12CCN(c1ncnc3[nH]ccc13)C2
subjects with Fatigue (healthy human; oral, dose not given): 3.1%

O=C(COc1ccc(Cl)cc1)NC12CC(c3nnc([C@H]4C[C@@H](OC(F)(F)F)C4)o3)(C1)C2
treatment-emergent adverse events (refers to: Presyncope; healthy humans, both sexes; oral, dose not given, single ascending dose, fasted; relative to: subjects): 5.6%

Cc1cc(Nc2cc3ncccc3c(N[C@@H]3C[C@H]4CC[C@@H](C3)N4CCC#N)n2)n[nH]1
sneezing incidence (healthy human subjects; oral, 100 mg, 14 days, multiple ascending dose): 17%

C=CC(=O)Nc1cc(Nc2nccc(-c3cn(C)c4ccccc34)n2)c(OC)cc1N(C)CCN(C)C
recovery (storage stability; human dried blood spot; 10 d, -80 °C, HQC level): 95.3%

COc1cc([C@H]2Oc3cc([C@H]4Oc5cc(O)cc(O)c5C(=O)[C@@H]4O)ccc3O[C@@H]2CO)ccc1O
AUC(0-4h) (OATP1B1/1B3 humanized mice, plasma; oral gavage, 500 mg/kg silymarin, geometric mean): 0.92 µM·h

O=C1NCCc2nc(OCc3cccc(F)c3)ccc21
Irwin test score (refers to: Tremors; Sprague-Dawley rat male; oral, 100 mg/kg, 0 min; relative to: baseline, direction not given): 0

CN1CCN(c2cccc3c2CCN(C(=O)/C=C/c2c(-n4cnnn4)ccc(Cl)c2F)[C@@H]3C(=O)Nc2ccc(C(=O)O)cc2)C(=O)C1
subjects with infusion site pain (healthy human subjects; intravenous infusion, 20 mg/h, 5 days): 0%

Cc1c2oc3c(C)ccc(C(=O)N[C@@H]4C(=O)N[C@H](C(C)C)C(=O)N5CCC[C@H]5C(=O)N(C)CC(=O)N(C)[C@@H](C(C)C)C(=O)O[C@@H]4C)c3nc-2c(C(=O)N[C@@H]2C(=O)N[C@H](C(C)C)C(=O)N3CCC[C@H]3C(=O)N(C)CC(=O)N(C)[C@@H](C(C)C)C(=O)O[C@@H]2C)c(N)c1=O
median plasma concentration (LC-MS; children with cancer, plasma; dose not given, 4 h): 3.7 µg/L

C[C@@H](Oc1cc(-c2cnn(C3CCNCC3)c2)cnc1N)c1c(Cl)ccc(F)c1Cl
AUCtau, dose-normalized (human patients, plasma; oral, dose not given, cycle 2 day 1, mean, together with: avelumab): 13 ng·h/mL/mg

NC(=O)N1c2ccccc2C=Cc2ccccc21
GGT increase resolution time (human; concentration not given): 17 days

O=C(O)CCC(=O)O.[2H]C([2H])([2H])Oc1cc(C)c2[nH]ccc2c1CN1CC[C@@H](C2CC2)C[C@H]1c1ccc(C(=O)O)cc1
TEAE urine leukocyte positive (healthy Chinese subjects; 200 mg, single ascending dose): 0%

CCc1cc(C(=O)NC)c2nccc(N3CCc4c(cc(Cn5ccnc5)cc4-c4cn(C)nc4C(F)(F)F)C3=O)c2c1
serum MCV change (Sprague Dawley rats; oral, 50 mg/kg once daily, 7 days; relative to: vehicle): 3.06%

CN(C)[C@@H]1C(O)=C(C(N)=O)C(=O)[C@@]2(O)C(O)=C3C(=O)c4c(O)cccc4[C@@](C)(O)[C@H]3C[C@@H]12
amount permeated (starch gel membrane permeability; Gram-negative envelope surrogate; 200 µM, 30 min, pH 7.4): 1.78 nmol

NC[C@@H]1O[C@H](O[C@H]2[C@@H](O)[C@H](O[C@@H]3[C@@H](O)[C@H](N)C[C@H](N)[C@H]3O[C@H]3O[C@H](CO)[C@@H](O)[C@H](O)[C@H]3N)O[C@@H]2CO)[C@H](N)[C@@H](O)[C@@H]1O
body weight (NSG mice; dose not given, day 1 of treatment): 21.3 g and 23.4 g and 22.4 g and 21.9 g and 22.5 g and 20.4 g and 22.1 g and 23.5 g

C[C@@H](N)C1CCN(S(=O)(=O)c2cccc3cnccc23)CC1
participants, with TEAEs, treatment-related (healthy volunteers; 250 mg, fasted): 66.7%

COc1ccc([C@@H](O)c2cc(-c3ncnc4cc(N5CCOCC5)ccc34)c(F)cc2Cl)nn1
drug-related blood lymphatic AE (locally advanced rectal cancer patients; 150 mg, together with: capecitabine and radiotherapy): 33%

[18F]c1ccc(-c2ccc3c(c2)[nH]c2ccncc23)cn1
SUV (ex vivo biodistribution; B6SJL mouse, normal, bladder; intravenous, 30 min): 2.53 ± 2.64

O=C(O)c1ccc(O)c(O)c1
plasma concentration (human plasma; mean, both sexes): 0.515 µM

CCOc1c([C@H](C)n2nc(C)c3c(N)ncnc32)cc(Cl)c(F)c1[C@@H]1CNC(=O)C1
AUC(0-last) geometric mean (patients, monotherapy; oral, 10 mg once daily, cycle 1 day 15): 6.63 µM·h

N#Cc1ccc2c(c1)[C@H]1CCCN(C(=O)c3ccc4[nH]cnc4c3)[C@H]1C2
exposure increase (human, plasma; oral, 240 mg, steady state, together with: background metformin): ~9%

O=c1oc2c(O)c(O)cc3c(=O)oc4c(O)c(O)cc1c4c23
plasma concentration (human plasma; median, both sexes): 0.138 µM

CC(C)c1nc(CN(C)C(=O)N[C@@H](CCN2CCOCC2)C(=O)N[C@H](CC[C@H](Cc2ccccc2)NC(=O)OCc2cncs2)Cc2ccccc2)cs1
drug-related TEAE (human; oral, 150 mg, drug interaction trial): 23.1%

C[C@@]1(c2cc(NC(=O)c3ccc(C#N)cn3)ccc2F)C=CSC(N)=N1
dose-normalised AUC(0-last) (elderly humans, both sexes, plasma; oral, 10 mg single dose): 100 ng·h/mL

O=C(N[C@H](Cc1c[nH]c2ccccc12)C(=O)Nc1ccncc1)c1ccc(N2CCN(c3ccc(F)c(F)c3)CC2)cc1F
concentration (Swiss Webster mouse, female, fat; oral, 50 mg/kg, 8 h, 20% HPβCD vehicle): 0.32 µM

N#CC[C@H](C1CCCC1)n1cc(-c2ncnc3[nH]ccc23)cn1
V/F (children, plasma; oral, mean): 59.4 ± 29.1 L

Cc1ccc([C@@H]2O[C@H](CO)[C@@H](O)[C@H](O)[C@H]2O)cc1Cc1ccc(-c2ccc(F)cc2)s1
urinary potassium excretion change (Japanese type 2 diabetes patients; 100 mg, day 6, 24 h urine collection; relative to: baseline): -3.35 mEq

FC(F)(F)c1ccc(CNc2ccc(Cc3c[nH]c4ncc(Cl)cc34)cn2)cn1
patients with treatment-related adverse event (refers to: alanine aminotransferase increased; patients with TGCT; oral, 1000 mg/day, grade 3 or higher): 10%

COc1ccc2c(c1)CN(C(=O)CCN1CCC(Cc3ccccc3)CC1)CC[S@@+]2[O-]
diastolic blood pressure (telemetry; conscious dog; intravenous, 8 mg/kg, 4 h): 81 ± 15 mmHg

CCO[C@H]1CCN(Cc2c(OC)cc(C)c3[nH]ccc23)[C@H](c2ccc(C(=O)O)cc2)C1
unbound AUC(0-12) (human mild hepatic impairment, plasma; oral, 200 mg single dose, geometric mean): 4.44 µg·h/mL

COc1c(O)cccc1OS(=O)(=O)O
plasma concentration (human plasma; median): 1.69 µM

C[C@H]1[C@H](NC(=O)/C(=N\OC(C)(C)C(=O)O)c2csc(N)n2)C(=O)N1S(=O)(=O)O
amount permeated (starch gel membrane permeability; Gram-negative envelope surrogate; 200 µM, 30 min, pH 7.4): 2.29 nmol

CNC(=O)c1ccc(-c2cnc3ncc(Cc4ccc5ncccc5c4)n3n2)cc1F
patients with adverse event (refers to: Pyrexia, all grades; hepatocellular carcinoma patients; oral, 600 mg twice daily, expansion cohort, any causality): 0%

Oc1ccc([C@H]2COc3cc(O)ccc3C2)cc1
plasma concentration (human plasma; median, both sexes): 1.29 µM

N#CCNC(=O)c1ccc(-c2ccnc(Nc3ccc(N4CCOCC4=O)cc3)n2)cc1
AUCtau increase (healthy volunteers, plasma; dose not given, together with: ritonavir multiple-dose; relative to: compound alone): 24%

O=C(O)C=Cc1ccc(OS(=O)(=O)O)c(O)c1
plasma concentration (human plasma; mean): 0.114 µM

CC(C)NCCCC[C@@H]1NC(=O)[C@H](Cc2ccc(O)cc2)NC(=O)[C@H](Cc2ccccc2)NC(=O)CC[C@H](C(=O)N[C@@H](CCCCNC(C)C)C(=O)N[C@@H](CCCCNC(=O)[C@H](CCC(=O)O)NC(=O)[C@H](CCC(=O)O)NC(=O)[C@H](CCC(=O)O)NC(=O)CN2CCN(CC(=O)O)CCN(CC(=O)O)CCN(CC(=O)O)CC2)C(N)=O)NC(=O)CNC(=O)[C@H](Cc2ccc3ccccc3c2)NC(=O)[C@@H](CCCNC(=N)N)NC1=O [gallium-68 labelled]
tissue uptake (mouse with Daudi xenograft, muscle; intravenous, 1 h): 0.12 %ID/g

CC(C)(C(=O)N1CCOc2c(C#N)cncc2C1)C(F)F
subjects with adverse event (refers to: Dizziness; human; oral, 40 mg, CSF pharmacokinetic cohort): 16.7%

CN(C)C(=N)N=C(N)N
subjects with adverse event (refers to: nausea; healthy men; oral, dose not given, 8 days, treatment-emergent, crossover trial): 4.5%

O=C(O)/C=C/c1ccccc1O
plasma concentration (human plasma; median): 0.11 µM

O=c1ccccc(C2CCCO2)c1O (centres unmarked)
serum concentration (C57BL/6 mouse male, turpentine inflammation anemia, serum; 200 mg/kg/day, 3 h after last dose): 20 µM

Cc1nc2ccc(OCc3ccc(C(F)(F)F)cc3)cc2[nH]1
tissue/plasma ratio (male Balb/c mice, brain; oral, 10 mg/kg, 4 h; relative to: tissue over plasma): 4.5 ± 0.6

O=Cc1ccc(O)cc1
plasma concentration (human plasma; mean, both sexes): 2.04 µM

COc1ncc(-c2nc3c(n2C(C)C)[C@H](c2ccc(Cl)cc2)N(c2cc(Cl)cn(C)c2=O)C3=O)c(OC)n1
median half-life (human patients, plasma; oral, 12.5 mg, high-dose arm, cycle 2 day 1): 8.7 h

C[C@@H](Oc1ccc(S(C)(=O)=O)cc1C(=O)N1C[C@@H]2C[C@]2(c2cc(C(F)(F)F)on2)C1)C(F)(F)F
exposure increase (healthy human volunteers; oral, 10 mg single dose, together with: fed state; relative to: fasted state): < 20%

NC1(C(=O)N[C@@H](CCO)c2ccc(Cl)cc2)CCN(c2nc[nH]c3nccc2-3)CC1
incidence of Blindness (metastatic CRPC patients; 320 mg b.i.d., grade 3 to 4, treatment-related, together with: enzalutamide 160 mg daily): 0%

CC[C@H]1OC(=O)[C@H](C)[C@@H](O[C@H]2C[C@@](C)(OC)[C@@H](O)[C@H](C)O2)[C@H](C)[C@@H](O[C@@H]2O[C@H](C)C[C@H](N(C)C)[C@H]2O)[C@](C)(O)C[C@@H](C)C(=O)[C@H](C)[C@@H](O)[C@]1(C)O
amount permeated (starch gel membrane permeability; Gram-negative envelope surrogate; 200 µM, 10 min, pH 7.4): 0.07 nmol

N#Cc1ccc2c(c1)[C@H]1CCCN(C(=O)c3ccc4[nH]cnc4c3)[C@H]1C2
total testosterone level (human females; 240 mg, end of trial): 0.7 nmol/L

COc1ccc2c3c([nH]c2c1)[C@H](CC(C)C)N1C(=O)[C@H](CC(=O)NC(C)C)NC(=O)[C@@H]1C3
serum concentration (wild-type mouse, male, serum; oral, 100 mg/kg, 24 h): 0.011 µM and 0.0337 µM and 0.0119 µM and 0.0202 µM

O=C1c2ccncc2C(=O)c2c1[nH]c1ccccc21
oral bioavailability (Sprague-Dawley rat, male, plasma; oral, 1 mg/kg; relative to: intravenous AUC(0-t)): 26%

C=CCn1c(=O)c2cnc(Nc3ccc(N4CCN(C)CC4)cc3)nc2n1-c1ccc2c(n1)[C@@](O)(CC)CC2
oral bioavailability (dog): 142%
